Published values pooled from the literature.
Lines come from different studies, so protocols differ.
B1: Runx2 (Mus musculus, UniProt Q08775); sequence looked up; chain MLHSPHKQPQNHKCGANFLQEDCKKALAFKWLISAGHYQPPRPTESVSALTTVHAGIFKAASSIYNRGHKFYLEKKGGTMASNSLFSAVTPCQQSFFWDPSTSRRFSPPSSSLQPGKMSDVSPVVAAQQQQQQQQQQQQQQQQQQQQQQQQQQQQQEAAAAAAAAAAAAAAAAAAVPRLRPPHDNRTMVEIIADHPAELVRTDSPNFLCSVLPSHWRCNKTLPVAFKVVALGEVPDGTVVTVMAGNDENYSAELRNASAVMKNQVARFNDLRFVGRSGRGKSFTLTITVFTNPPQVATYHRAIKVTVDGPREPRRHRQKLDDSKPSLFSDRLSDLGRIPHPSMRVGVPPQNPRPSLNSAPSPFNPQGQSQITDPRQAQSSPPWSYDQSYPSYLSQMTSPSIHSTTPLSSTRGTGLPAITDVPRRISDDDTATSDFCLWPSSLSKKSQAGASELGPFSDPRQFPSISSLTESRFSNPRMHYPATFTYTPPVTSGMSLGMSATTHYHTYLPPPYPGSSQSQSGPFQTSSTPYLYYGTSSASYQFPMVPGGDRSPSRMVPPCTTTSNGSTLLNPNLPNQNDGVDADGSHSSSPTVLNSSGRMDESVWRPY
B2: DLL4 27-400 G28S/F107L/I143F/H194Y/L206P/N257P/T271L/F280Y/S301R/Q305P (Homo sapiens, UniProt Q9NR61); sequence looked up; chain SSVFQLQLQEFINERGVLASGRPCEPGCRTFFRVCLKHFQAVVSPGPCTFGTVSTPVLGTNSFAVRDDSSGGGRNPLQLPLNFTWPGTFSLIIEAWHAPGDDLRPEALPPDALISKFAIQGSLAVGQNWLLDEQTSTLTRLRYSYRVICSDNYYGDNCSRLCKKRNDYFGHYVCQPDGNPSCLPGWTGEYCQQPICLSGCHEQNGYCSKPAECLCRPGWQGRLCNECIPHPGCRHGTCSTPWQCLCDEGWGGLYCDQDLNYCTHHSPCKNGATCRNSGPRSYTCTCRPGYTGVDCELELSECDSNPCRNGGSCKDQEDGYHCLCPPGYYGLHCEHSTLSCADSPCFNGGSCRERNQGANYACECPPNFTGSNCE
B3: lat-1 32-136 F69A (Caenorhabditis elegans, UniProt G5EDW2); chain TTDESGTISHTICDGEAAELSCPAGKVISIVLGNYGRASVAVCLPDNDIVPSNINCQNHKTKSILEKKCNGDSMCYFTVDKKTFTEDPCPNTPKYLEVKYNCVVP
Sequence of UniProt P43124 (whole entry, looked up): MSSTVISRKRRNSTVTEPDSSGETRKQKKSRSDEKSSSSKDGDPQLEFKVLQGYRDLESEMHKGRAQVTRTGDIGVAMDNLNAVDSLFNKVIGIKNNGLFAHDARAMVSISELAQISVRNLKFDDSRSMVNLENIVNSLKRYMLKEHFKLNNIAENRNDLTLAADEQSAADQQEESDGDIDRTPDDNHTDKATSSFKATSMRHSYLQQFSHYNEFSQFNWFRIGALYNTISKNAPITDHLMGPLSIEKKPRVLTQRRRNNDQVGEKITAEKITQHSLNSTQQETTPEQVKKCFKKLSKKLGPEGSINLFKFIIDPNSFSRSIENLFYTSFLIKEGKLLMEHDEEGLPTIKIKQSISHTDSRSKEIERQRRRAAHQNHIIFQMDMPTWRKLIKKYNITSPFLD
Sequence of UniProt P32833 (whole entry, looked up): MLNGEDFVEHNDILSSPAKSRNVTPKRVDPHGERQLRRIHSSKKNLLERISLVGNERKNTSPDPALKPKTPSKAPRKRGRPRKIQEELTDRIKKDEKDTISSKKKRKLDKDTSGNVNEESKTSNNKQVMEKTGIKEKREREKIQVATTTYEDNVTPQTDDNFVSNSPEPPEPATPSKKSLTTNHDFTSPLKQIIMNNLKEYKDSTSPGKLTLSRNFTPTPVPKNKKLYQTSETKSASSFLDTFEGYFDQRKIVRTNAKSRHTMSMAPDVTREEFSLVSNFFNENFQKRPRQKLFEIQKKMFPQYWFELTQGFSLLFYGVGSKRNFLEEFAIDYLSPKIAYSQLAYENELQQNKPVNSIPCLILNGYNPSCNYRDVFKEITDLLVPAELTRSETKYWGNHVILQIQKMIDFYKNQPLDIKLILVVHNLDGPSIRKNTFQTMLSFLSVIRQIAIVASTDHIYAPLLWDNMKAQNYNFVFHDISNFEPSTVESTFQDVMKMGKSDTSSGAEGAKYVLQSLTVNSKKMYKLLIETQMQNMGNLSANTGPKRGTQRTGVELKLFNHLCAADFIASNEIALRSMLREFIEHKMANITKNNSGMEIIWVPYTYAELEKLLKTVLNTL
Sequence of UniProt P38826 (whole entry, looked up): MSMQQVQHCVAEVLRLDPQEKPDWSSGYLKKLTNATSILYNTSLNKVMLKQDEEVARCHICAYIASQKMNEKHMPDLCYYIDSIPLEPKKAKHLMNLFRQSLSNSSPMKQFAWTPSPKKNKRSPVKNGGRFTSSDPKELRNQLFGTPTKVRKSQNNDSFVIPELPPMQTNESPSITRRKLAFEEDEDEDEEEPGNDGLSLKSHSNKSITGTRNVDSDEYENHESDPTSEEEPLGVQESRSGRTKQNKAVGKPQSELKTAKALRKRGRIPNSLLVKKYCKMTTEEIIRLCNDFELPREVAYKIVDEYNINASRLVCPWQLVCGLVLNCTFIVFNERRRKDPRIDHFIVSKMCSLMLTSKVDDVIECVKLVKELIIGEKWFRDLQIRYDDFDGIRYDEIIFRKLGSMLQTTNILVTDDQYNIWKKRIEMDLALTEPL
Sequence of UniProt Q99466 (whole entry, looked up): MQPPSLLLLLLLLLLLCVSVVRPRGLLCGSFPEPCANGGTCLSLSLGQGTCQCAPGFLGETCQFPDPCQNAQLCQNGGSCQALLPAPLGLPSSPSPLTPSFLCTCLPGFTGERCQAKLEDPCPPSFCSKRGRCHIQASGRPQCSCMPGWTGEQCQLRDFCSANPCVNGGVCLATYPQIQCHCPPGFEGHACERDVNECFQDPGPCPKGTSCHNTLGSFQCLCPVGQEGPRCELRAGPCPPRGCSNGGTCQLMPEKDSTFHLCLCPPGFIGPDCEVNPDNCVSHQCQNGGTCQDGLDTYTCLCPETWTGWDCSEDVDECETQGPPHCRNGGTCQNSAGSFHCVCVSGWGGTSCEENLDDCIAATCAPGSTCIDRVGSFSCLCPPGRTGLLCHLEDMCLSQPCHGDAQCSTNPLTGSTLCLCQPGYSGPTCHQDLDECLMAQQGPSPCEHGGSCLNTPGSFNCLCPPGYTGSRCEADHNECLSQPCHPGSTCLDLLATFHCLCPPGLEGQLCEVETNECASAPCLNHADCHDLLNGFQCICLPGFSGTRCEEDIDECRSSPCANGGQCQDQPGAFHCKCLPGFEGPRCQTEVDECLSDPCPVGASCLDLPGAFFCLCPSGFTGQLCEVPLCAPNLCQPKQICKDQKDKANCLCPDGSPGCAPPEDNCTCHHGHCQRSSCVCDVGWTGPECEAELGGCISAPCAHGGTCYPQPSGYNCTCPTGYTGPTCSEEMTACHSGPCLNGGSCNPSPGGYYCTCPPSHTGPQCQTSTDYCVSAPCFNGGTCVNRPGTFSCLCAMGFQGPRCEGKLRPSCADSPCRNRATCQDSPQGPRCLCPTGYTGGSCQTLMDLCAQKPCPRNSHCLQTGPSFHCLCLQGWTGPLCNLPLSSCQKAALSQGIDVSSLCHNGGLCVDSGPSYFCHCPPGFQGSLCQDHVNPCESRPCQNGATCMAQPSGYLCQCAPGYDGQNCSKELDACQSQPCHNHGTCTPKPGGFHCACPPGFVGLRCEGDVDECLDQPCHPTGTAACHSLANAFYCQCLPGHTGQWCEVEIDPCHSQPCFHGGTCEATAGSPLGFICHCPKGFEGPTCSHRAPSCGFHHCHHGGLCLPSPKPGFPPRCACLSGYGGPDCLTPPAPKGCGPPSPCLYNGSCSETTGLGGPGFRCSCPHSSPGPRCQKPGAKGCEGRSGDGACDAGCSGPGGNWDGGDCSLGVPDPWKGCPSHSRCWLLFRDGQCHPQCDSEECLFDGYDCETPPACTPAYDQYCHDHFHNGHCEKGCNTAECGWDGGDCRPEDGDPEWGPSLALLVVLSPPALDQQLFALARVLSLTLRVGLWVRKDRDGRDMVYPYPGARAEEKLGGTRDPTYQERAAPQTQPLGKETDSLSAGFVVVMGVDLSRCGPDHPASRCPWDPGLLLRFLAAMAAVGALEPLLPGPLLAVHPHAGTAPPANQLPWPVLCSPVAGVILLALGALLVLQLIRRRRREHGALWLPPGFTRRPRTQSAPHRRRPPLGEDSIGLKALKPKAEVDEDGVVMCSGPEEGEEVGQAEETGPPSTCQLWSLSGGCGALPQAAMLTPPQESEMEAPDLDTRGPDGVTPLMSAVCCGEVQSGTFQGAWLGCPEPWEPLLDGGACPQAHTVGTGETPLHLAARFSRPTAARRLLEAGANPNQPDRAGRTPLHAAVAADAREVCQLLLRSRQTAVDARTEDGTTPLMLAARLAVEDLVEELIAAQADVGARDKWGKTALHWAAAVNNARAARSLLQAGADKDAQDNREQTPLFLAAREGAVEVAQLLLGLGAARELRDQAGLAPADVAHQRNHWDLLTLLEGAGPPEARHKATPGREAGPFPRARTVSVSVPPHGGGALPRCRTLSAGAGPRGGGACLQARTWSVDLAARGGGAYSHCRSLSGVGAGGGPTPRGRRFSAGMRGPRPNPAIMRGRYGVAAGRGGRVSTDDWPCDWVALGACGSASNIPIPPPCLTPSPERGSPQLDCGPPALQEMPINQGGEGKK
Sequence of UniProt P48735 (whole entry, looked up): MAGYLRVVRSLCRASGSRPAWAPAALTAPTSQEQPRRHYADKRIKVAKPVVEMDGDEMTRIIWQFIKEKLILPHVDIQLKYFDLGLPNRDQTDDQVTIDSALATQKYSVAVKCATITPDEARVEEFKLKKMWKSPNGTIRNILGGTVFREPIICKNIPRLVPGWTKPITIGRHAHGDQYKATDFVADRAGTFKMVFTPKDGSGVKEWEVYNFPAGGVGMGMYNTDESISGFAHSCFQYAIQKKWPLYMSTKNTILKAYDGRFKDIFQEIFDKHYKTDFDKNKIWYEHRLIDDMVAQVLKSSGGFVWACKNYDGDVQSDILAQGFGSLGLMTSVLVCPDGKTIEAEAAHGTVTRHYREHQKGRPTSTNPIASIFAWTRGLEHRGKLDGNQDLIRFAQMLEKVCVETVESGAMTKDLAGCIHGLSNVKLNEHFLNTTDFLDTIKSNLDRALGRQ
Sequence of UniProt Q05541 (whole entry, looked up): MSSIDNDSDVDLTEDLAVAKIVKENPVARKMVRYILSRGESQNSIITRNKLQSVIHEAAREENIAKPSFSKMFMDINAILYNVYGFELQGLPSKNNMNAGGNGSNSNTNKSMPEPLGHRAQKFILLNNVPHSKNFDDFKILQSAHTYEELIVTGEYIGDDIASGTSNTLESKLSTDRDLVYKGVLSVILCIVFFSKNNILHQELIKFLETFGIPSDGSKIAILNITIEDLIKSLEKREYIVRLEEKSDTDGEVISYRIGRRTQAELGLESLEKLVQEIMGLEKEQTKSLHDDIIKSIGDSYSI
Sequence of UniProt P01009 (whole entry, looked up): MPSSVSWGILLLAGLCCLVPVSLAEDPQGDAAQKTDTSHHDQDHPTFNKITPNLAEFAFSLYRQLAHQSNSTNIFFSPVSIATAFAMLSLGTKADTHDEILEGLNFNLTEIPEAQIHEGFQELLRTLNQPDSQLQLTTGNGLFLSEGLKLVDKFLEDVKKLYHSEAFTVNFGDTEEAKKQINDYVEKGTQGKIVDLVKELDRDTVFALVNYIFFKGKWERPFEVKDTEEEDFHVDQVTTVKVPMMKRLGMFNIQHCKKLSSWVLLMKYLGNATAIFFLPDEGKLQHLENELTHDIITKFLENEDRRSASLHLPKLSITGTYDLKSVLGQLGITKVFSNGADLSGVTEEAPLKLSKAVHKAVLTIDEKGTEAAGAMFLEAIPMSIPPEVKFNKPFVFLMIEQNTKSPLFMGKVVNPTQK

Substance	tested on	test	system	conditions	how to read	quantity	result
SERPINA1 (Homo sapiens, UniProt P01009)	Factor Xa mature, plasma-derived (Homo sapiens)	inhibition kinetics, amidolytic activity				second-order inhibition rate constant	460 M⁻¹ s⁻¹
B1 (Runx2)	Sp7 (Mus musculus, UniProt Q8VI67)	luciferase reporter	epithelial cells		reference: alone, higher = greater activity	OC promoter activity	22 fold
ORC2 (Saccharomyces cerevisiae, UniProt P32833)	ORC6 (Saccharomyces cerevisiae, UniProt P38826)	cross-linking MS		hits only		interaction screen	cross-linked
FGB dimer (Homo sapiens)	CDH2 extracellular domain 1-551 (Homo sapiens)	SPR		Langmuir fit, with: CaCl2		kon	655000 M⁻¹ s⁻¹
B2	NOTCH4 276-511 (Homo sapiens, UniProt Q99466)	SPR			reference: WT DLL4, higher = tighter binding	affinity enhancement	532 fold
B3 (lat-1 32-136 F69A)	tol-1 extracellular region (Caenorhabditis elegans)	SPR			reference: wild type, higher = weaker binding	relative binding affinity	> 1000 fold
ALB (Homo sapiens, UniProt P02768)	BRCA2 (Homo sapiens, UniProt P51587)	cross-linking MS		with: DSSO		cross-linked residues	K219 to K604
GSGAGSETSV	human MAGI1-3/6 PDZ construct (MBP fusion)	surface plasmon resonance	peptide	concentration not given	higher = stronger binding	normalised SPR binding response	0 normalised RU
FGB (Homo sapiens, UniProt P02675)	AK9 (Homo sapiens, UniProt Q5TCS8)	cross-linking MS		with: DSSO		cross-linked residues	K328 to K1766
GSGAGSETVV	human MAGI1-3/6 PDZ construct (MBP fusion)	automated holdup	peptide, crude extract	concentration not given, corrected by standard peak, unit not given	reference: biotin control resin, higher = stronger binding	binding intensity	0.151
GPR39 (Homo sapiens, UniProt O43194)	FGA (Homo sapiens, UniProt P02671)	cross-linking MS		with: DSSO		cross-linked residues	K61 to K476
GAPDH (Homo sapiens, UniProt P04406)	IDH2 (Homo sapiens, UniProt P48735)	cross-linking MS	cells	with: iqPIR		cross-linked residues	K194 to K155
FGA (Homo sapiens, UniProt P02671)	EHBP1L1 (Homo sapiens, UniProt Q8N3D4)	cross-linking MS		with: DSSO		cross-linked residues	K437 to K968
NSE4 (Saccharomyces cerevisiae, UniProt P43124)	NSE3 (Saccharomyces cerevisiae, UniProt Q05541)	cross-linking MS		hits only		interaction screen	cross-linked

Some of these lines once more:
Substance	tested on	test	system	conditions	how to read	quantity	result
B2	NOTCH4 276-511 (Homo sapiens, UniProt Q99466)	SPR			reference: WT DLL4, higher = tighter binding	affinity enhancement	532 fold
